Assay results gathered from unrelated publications.
Lines come from different studies, so protocols differ. ± marks the error that the study gave. ≈ marks a conversion by molar mass, not a printed value.

| SMILES | target or system | assay | system | conditions | scale | measurement | result |
| --- | --- | --- | --- | --- | --- | --- | --- |
| CC[C@H](C)[C@@H]1NC(=O)CNC(=O)[C@H](CCCCN)NC(=O)[C@H](C)NC(=O)[C@H](CCC(=O)O)NC(=O)[C@H](Cc2ccccc2)NC(=O)[C@H](CO)NC(=O)[C@H](CC(C)C)NC(=O)[C@H](C(C)C)NC(=O)[C@H](CC(=O)O)NC(=O)[C@@H](NC(=O)[C@@H](NC(=O)[C@@H](N)C(C)C)[C@@H](C)O)CSSC[C@@H]2NC(=O)[C@H](CO)NC(=O)CNC(=O)CNC(=O)[C@H](CCCCN)NC(=O)[C@H](CCCCN)NC(=O)[C@H](CCCNC(=N)N)NC(=O)[C@H](CC(C)C)NC(=O)[C@H](C)NC(=O)[C@H]([C@@H](C)CC)NC(=O)[C@H](C)NC(=O)[C@H](Cc3c[nH]cn3)NC(=O)[C@H](CC(C)C)NC(=O)[C@H](C)NC(=O)[C@H](CSSC[C@@H](C(=O)N[C@H](C(=O)N[C@@H](C)C(=O)N[C@@H](CCCNC(=N)N)C(=O)N[C@@H](CC(N)=O)C(=O)O)C(C)C)NC(=O)[C@H](C(C)C)NC(=O)CNC(=O)[C@H](CC(N)=O)NC(=O)[C@H](CCC(N)=O)NC2=O)NC(=O)[C@H](C)NC(=O)[C@H](CO)NC(=O)[C@H](Cc2c[nH]cn2)NC(=O)[C@H](CC(N)=O)NC(=O)[C@H](C(C)C)NC(=O)[C@H](C)NC1=O | Salmonella typhimurium | broth microdilution | KCTC 1926 | 16 h, 37 °C | – | MIC | > 100 µM |
| CCCCCCCCC(=O)NCc1ccc(O)c(OC)c1 | mAb 4-AT4 | antibody binding, indirect competitive ELISA | – | added: coating antigen hapten 5-OVA | – | IC50 | 0.002 µg/mL (≈ 6.82 nM) |
| CN(Cc1cc(C2CC2)on1)C(=O)c1cccc(-c2ccc(F)cc2)c1 | Cryptococcus neoformans | microbial growth, broth dilution | – | – | – | MIC | 32 µg/mL |
| N=C(N)NCCC[C@@H]1NC(=O)[C@H](CCCCNC(=O)CC[C@H](NC(=O)CCOCCOCCOCCOCCNC(=O)CN2CCN(CC(=O)O)CCN(CC(=O)O)CCN(CC(=O)O)CC2)C(=O)NCCCC[C@@H]2NC(=O)[C@@H](Cc3ccccc3)NC(=O)[C@H](CC(=O)O)NC(=O)CNC(=O)[C@H](CCCNC(=N)N)NC2=O)NC(=O)[C@@H](Cc2ccccc2)NC(=O)[C@H](CC(=O)O)NC(=O)CNC1=O [indium-111 labelled] | – | – | female athymic nude mouse | intravenous, 3 µCi, 24 h, U-87 MG glioma xenograft | baseline: tumour over muscle | tumour to muscle ratio | 7.9 ± 1.53 |
| CC1=CC2(C)C(=C(C)C3C4CC(C)CC(C)C4C4Oc5ccc(cc5)CC5(O)NC(=O)C(=C(O)C2C43)C5Nc2ncnc3c2ncn3C2OC(CO)C(O)C2O)C1C (stereo not shown) | Staphylococcus aureus, Enterococcus faecalis, Enterococcus faecium | broth microdilution | drug-susceptible and drug-resistant | range over Gram-positive panel | – | MIC | 6.3 to 12.5 µM |
| CC[C@H](C)[C@H](NC(=O)[C@H](CCCN)NC(=O)[C@H](CC(N)=O)NC(=O)[C@H](Cc1c[nH]c2ccccc12)NC(=O)[C@H](Cc1ccccc1)NC(=O)[C@H](CCCN)NC(=O)[C@H](CCCCNC(=N)N)NC(=O)[C@H](CC(C)C)NC(=O)[C@H](Cc1c[nH]c2ccccc12)NC(=O)[C@H](CCCN)NC(=O)[C@H](CCCCNC(=N)N)NC(=O)[C@H](CC(C)C)NC(=O)CNC(C)=O)C(=O)N[C@@H](CCCN)C(=O)N[C@@H](CCCCNC(=N)N)C(N)=O | Enterobacter aerogenes | broth microdilution | multidrug-resistant | – | – | MIC | 6.25 µM |
| CC1N=C(CCCCCCCCCCC2=CC(CCCCCCCCCCC3=NC(C)C(O)CC3)C3CCCN3C2)CCC1O (stereo not shown) | Cryptococcus neoformans | – | ATCC 90113 | – | – | MIC | 1.25 µg/mL |
| CC[C@H](C)[C@H](NC(=O)[C@H](CCCNC(=N)N)NC(=O)[C@H](CCCCN)NC(=O)[C@H](CC(C)C)NC(=O)[C@H](CC(C)C)NC(=O)CNC(=O)[C@H](Cc1c[nH]cn1)NC(=O)[C@H](C)NC(=O)[C@@H](N)CC(=O)O)C(=O)N[C@@H](CCCCN)C(=O)N[C@H](C(=O)N[C@@H](CC(C)C)C(=O)N[C@@H](CC(C)C)C(N)=O)[C@@H](C)O | Enterobacter aerogenes | – | ATCC 13048 | 18 to 20 h | – | MIC | > 32 µM |
| CN[C@@H]1[C@H](O)[C@H](NC)[C@H]2O[C@]3(O)[C@H](O[C@@H]2[C@H]1O)O[C@H](C)C[C@@]3(O)CNCc1ccccc1 | Streptococcus pneumoniae | – | OVA2 drug resistant | – | – | MIC | 6 µg/mL |
| C[C@@H](c1ccn(Cc2ccc(I)cc2)n1)[C@](O)(Cn1cnnn1)c1ccc(F)cc1F | Candidozyma auris | growth | 888 drug-resistant isolate | 24 h, 30 °C, ≥50% inhibition | – | MIC | 4 µg/mL |
| CC(C)C[C@@H]1NC(=O)[C@H](C)NC(=O)[C@H](NC(=O)[C@H](C)NC(=O)[C@@H](CCCCN)NC(=O)[C@@H](CC(C)C)NC(=O)[C@@H](N)Cc2ccccc2)[C@H](C(N)=O)OC(=O)[C@H](CC(C)C)NC1=O | Bacillus subtilis Staphylococcus epidermidis | – | ATCC 14990 | tested as TFA salt | – | MIC | 4 to 8 µg/mL |
| CC[C@H](C)[C@H](NC(=O)[C@H](Cc1ccccc1)NC(=O)[C@H](CCC(N)=O)NC(=O)[C@H](CCSC)NC(=O)[C@@H](NC(=O)[C@H](CCC(N)=O)NC(=O)[C@H](CCCCN)NC(=O)[C@H](Cc1ccc(O)cc1)NC(=O)[C@H](Cc1ccccc1)NC(=O)[C@H](CCCCN)NC(=O)[C@H](CCCCN)NC(=O)[C@@H](NC(=O)[C@H](Cc1ccccc1)NC(=O)[C@@H]1CCCN1C(=O)[C@H](Cc1c[nH]c2ccccc12)NC(=O)CNC(=O)[C@H](Cc1ccccc1)NC(=O)[C@H](CCCCN)NC(=O)[C@H](C)NC(=O)[C@@H](NC(=O)[C@H](CC(C)C)NC(=O)[C@H](CCCCN)NC(=O)[C@H](C)NC(=O)[C@H](CCCNC(=N)N)NC(=O)[C@H](C)NC(=O)CNC(=O)[C@@H](N)CCSC)C(C)C)[C@@H](C)CC)[C@@H](C)CC)C(=O)NCC(=O)N[C@@H](CCC(N)=O)C(=O)NCC(=O)N[C@@H](Cc1c[nH]c2ccccc12)C(=O)N[C@H](C(=O)N[C@H](C(=O)N[C@@H](CC(=O)O)C(=O)N[C@@H](CCC(N)=O)C(=O)N[C@H](C(=O)N[C@@H](CCC(=O)O)C(=O)N[C@@H](CCCCN)C(=O)N[C@@H](Cc1c[nH]c2ccccc12)C(=O)N[C@@H](CC(C)C)C(=O)N[C@@H](CCCCN)C(=O)N[C@@H](CCCNC(=N)N)C(=O)N[C@@H](Cc1c[nH]cn1)C(=O)O)[C@@H](C)CC)[C@@H](C)CC)[C@@H](C)O | Bacillus subtilis subsp. subtilis | – | ATCC 23857 | 10 h | – | MIC | 6.1 ± 0.2 µM |
| C[N+]1=C2C(c3ccccc3)=[N+]([O-])c3ccccc3N2CCC1 | Clostridioides difficile | microbial growth | ATCC43255 | – | – | MIC | 32 µg/mL |
| CCCNC(=O)[C@H](CC(C)C)NC(=O)[C@H](Cc1c[nH]cn1)NC(=O)CNC(=O)[C@@H](NC(=O)[C@H](C)NC(=O)[C@H](Cc1c[nH]c2ccccc12)NC(=O)[C@H](CCC(N)=O)NC(=O)[C@@H](Cc1ccccc1)NC(=O)CCCCCNC(=O)CN1CCN(CC(=O)O)CCN(CC(=O)O)CCN(CC(=O)O)CC1)C(C)C [indium-111 labelled] | Gastrin-releasing peptide receptor (Mus musculus, UniProt P21729) | biodistribution | CF-1 mice, pancreas | intravenous, 1 h, added: bombesin 100 µg, blocking | – | tissue uptake | 0.2 ± 0.01 %ID/g |
| N=C(N)NCCC[C@@H]1NC(=O)[C@H](CCCCNC(=O)CC[C@H](NC(=O)CCOCCOCCOCCOCCNC(=O)CC[C@H](NC(=O)CN2CCN(CC(=O)O)CCN(CC(=O)O)CCN(CC(=O)O)CC2)C(=O)NCCOCCOCCOCCOCCC(=O)N[C@@H](CCC(=O)NCCCC[C@@H]2NC(=O)[C@@H](Cc3ccccc3)NC(=O)[C@H](CC(=O)O)NC(=O)CNC(=O)[C@H](CCCNC(=N)N)NC2=O)C(=O)NCCCC[C@@H]2NC(=O)[C@@H](Cc3ccccc3)NC(=O)[C@H](CC(=O)O)NC(=O)CNC(=O)[C@H](CCCNC(=N)N)NC2=O)C(=O)NCCCC[C@@H]2NC(=O)[C@@H](Cc3ccccc3)NC(=O)[C@H](CC(=O)O)NC(=O)CNC(=O)[C@H](CCCNC(=N)N)NC2=O)NC(=O)[C@@H](Cc2ccccc2)NC(=O)[C@H](CC(=O)O)NC(=O)CNC1=O [indium-111 labelled] | – | – | female athymic nude mice, kidney | intravenous, 3 µCi, 0.5 h, U-87 MG glioma xenograft | – | tissue uptake | 8.89 ± 1.28 %ID/g |
| CC(=O)NC1C(OC2OC(CC(O)C3OC(n4ccc(=O)[nH]c4=O)C(O)C3O)C(O)C(O)C2NC(=O)C=CCCCCCCCCCC(C)C)OC(CO)C(O)C1O (stereo not shown) | Streptococcus salivarius | – | ATCC 7752 | – | – | MIC | > 50 µg/mL |
| CC[C@H](C)[C@H](NC(=O)[C@H](CCCCN)NC(=O)[C@H](CC(N)=O)NC(=O)[C@H](Cc1c[nH]c2ccccc12)NC(=O)[C@H](Cc1ccccc1)NC(=O)[C@H](CCCCN)NC(=O)[C@H](CCCNC(=N)N)NC(=O)[C@H](CC(C)C)NC(=O)[C@H](Cc1c[nH]c2ccccc12)NC(=O)[C@H](CCCCN)NC(=O)[C@H](CCCNC(=N)N)NC(=O)[C@H](CC(C)C)NC(=O)CNC(C)=O)C(=O)N[C@@H](CCCCN)C(=O)N[C@@H](CCCNC(=N)N)C(N)=O | Enterobacter aerogenes | broth microdilution | multidrug-resistant | – | – | MIC | 6.25 µM |
| [O-][N+]1=C(c2ccc(Cl)cc2)C2=NCCCN2c2ccccc21 | Clostridium sporogenes | microbial growth | ATCC3584 | – | – | MIC | 2 µg/mL |
| CCN(Cc1ccccc1)C(=O)CCc1nc(CN2CCN(C(=O)Cc3ccc(OC)c(OC)c3)CC2)no1 | KCNQ5 (Homo sapiens, UniProt Q9NR82) | whole-cell patch clamp | transfected cells | 100 nM | – | V1/2 of activation | -44.8 ± 3.01 mV |
| COc1ccc(C2=[N+]([O-])c3ccccc3N3CC(C)(C)CN=C23)cc1 | Clostridioides difficile | microbial growth | ATCC43255 | – | – | MIC | 4 µg/mL |
| C[C@@H](c1ccn(Cc2ccc(Cl)cc2Cl)n1)[C@](O)(Cn1cnnn1)c1ccc(F)cc1F | Candidozyma auris | growth | 791 drug-resistant isolate | 24 h, 30 °C, ≥50% inhibition | – | MIC | 16 µg/mL |
| O=C(NCc1nc(-c2ccc(Br)cc2)c[nH]1)Nc1ncc(Sc2ccccn2)s1 | Bifidobacterium breve | broth microdilution | ATCC 11863 | added: verapamil 50 µg/mL | – | MIC | > 128 µM |

Repeated from above:
| SMILES | target or system | assay | system | conditions | scale | measurement | result |
| --- | --- | --- | --- | --- | --- | --- | --- |
| CC[C@H](C)[C@@H]1NC(=O)CNC(=O)[C@H](CCCCN)NC(=O)[C@H](C)NC(=O)[C@H](CCC(=O)O)NC(=O)[C@H](Cc2ccccc2)NC(=O)[C@H](CO)NC(=O)[C@H](CC(C)C)NC(=O)[C@H](C(C)C)NC(=O)[C@H](CC(=O)O)NC(=O)[C@@H](NC(=O)[C@@H](NC(=O)[C@@H](N)C(C)C)[C@@H](C)O)CSSC[C@@H]2NC(=O)[C@H](CO)NC(=O)CNC(=O)CNC(=O)[C@H](CCCCN)NC(=O)[C@H](CCCCN)NC(=O)[C@H](CCCNC(=N)N)NC(=O)[C@H](CC(C)C)NC(=O)[C@H](C)NC(=O)[C@H]([C@@H](C)CC)NC(=O)[C@H](C)NC(=O)[C@H](Cc3c[nH]cn3)NC(=O)[C@H](CC(C)C)NC(=O)[C@H](C)NC(=O)[C@H](CSSC[C@@H](C(=O)N[C@H](C(=O)N[C@@H](C)C(=O)N[C@@H](CCCNC(=N)N)C(=O)N[C@@H](CC(N)=O)C(=O)O)C(C)C)NC(=O)[C@H](C(C)C)NC(=O)CNC(=O)[C@H](CC(N)=O)NC(=O)[C@H](CCC(N)=O)NC2=O)NC(=O)[C@H](C)NC(=O)[C@H](CO)NC(=O)[C@H](Cc2c[nH]cn2)NC(=O)[C@H](CC(N)=O)NC(=O)[C@H](C(C)C)NC(=O)[C@H](C)NC1=O | Salmonella typhimurium | broth microdilution | KCTC 1926 | 16 h, 37 °C | – | MIC | > 100 µM |
| CCCCCCCCC(=O)NCc1ccc(O)c(OC)c1 | mAb 4-AT4 | antibody binding, indirect competitive ELISA | – | added: coating antigen hapten 5-OVA | – | IC50 | 0.002 µg/mL (≈ 6.82 nM) |
